Results gathered from unrelated publications.
Parts stem from different laboratories: compare values within a part only.

Block 1 — technique: protein binding microarray; molecule type: double-stranded DNA, one strand shown; matrix: in vitro; tested at: not given; relative to: not given; direction: higher = stronger binding
Target: Histone acetyltransferase KAT6A, winged helix 1, GST fusion (KAT6A, Homo sapiens, UniProt Q92794, residues 1-85)
Setting: 8-mer, flanks averaged, mean of 2 arrays, mostly near background
Construct (chain): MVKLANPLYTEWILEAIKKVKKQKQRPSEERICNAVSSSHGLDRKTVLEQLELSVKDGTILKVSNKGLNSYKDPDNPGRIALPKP
| Oligonucleotide | E-score |
| --- | --- |
| GTGACCGA | 0.0854 |
| ACATTTAC | 0.0146 |
| ATTGATCA | -0.238 |
| AGAAACCA | -0.278 |
| CGGGTCTA | 0.0957 |

Block 2 — technique: universal PBM; molecule type: double-stranded DNA, one strand shown; matrix: in vitro; tested at: 600 nM; direction: higher = stronger binding
Target: Sal-like protein 4, full length isoform A (SALL4, Homo sapiens, UniProt Q9UJQ4, residues 1-1053)
Chain of UniProt Q9UJQ4 (whole entry, looked up): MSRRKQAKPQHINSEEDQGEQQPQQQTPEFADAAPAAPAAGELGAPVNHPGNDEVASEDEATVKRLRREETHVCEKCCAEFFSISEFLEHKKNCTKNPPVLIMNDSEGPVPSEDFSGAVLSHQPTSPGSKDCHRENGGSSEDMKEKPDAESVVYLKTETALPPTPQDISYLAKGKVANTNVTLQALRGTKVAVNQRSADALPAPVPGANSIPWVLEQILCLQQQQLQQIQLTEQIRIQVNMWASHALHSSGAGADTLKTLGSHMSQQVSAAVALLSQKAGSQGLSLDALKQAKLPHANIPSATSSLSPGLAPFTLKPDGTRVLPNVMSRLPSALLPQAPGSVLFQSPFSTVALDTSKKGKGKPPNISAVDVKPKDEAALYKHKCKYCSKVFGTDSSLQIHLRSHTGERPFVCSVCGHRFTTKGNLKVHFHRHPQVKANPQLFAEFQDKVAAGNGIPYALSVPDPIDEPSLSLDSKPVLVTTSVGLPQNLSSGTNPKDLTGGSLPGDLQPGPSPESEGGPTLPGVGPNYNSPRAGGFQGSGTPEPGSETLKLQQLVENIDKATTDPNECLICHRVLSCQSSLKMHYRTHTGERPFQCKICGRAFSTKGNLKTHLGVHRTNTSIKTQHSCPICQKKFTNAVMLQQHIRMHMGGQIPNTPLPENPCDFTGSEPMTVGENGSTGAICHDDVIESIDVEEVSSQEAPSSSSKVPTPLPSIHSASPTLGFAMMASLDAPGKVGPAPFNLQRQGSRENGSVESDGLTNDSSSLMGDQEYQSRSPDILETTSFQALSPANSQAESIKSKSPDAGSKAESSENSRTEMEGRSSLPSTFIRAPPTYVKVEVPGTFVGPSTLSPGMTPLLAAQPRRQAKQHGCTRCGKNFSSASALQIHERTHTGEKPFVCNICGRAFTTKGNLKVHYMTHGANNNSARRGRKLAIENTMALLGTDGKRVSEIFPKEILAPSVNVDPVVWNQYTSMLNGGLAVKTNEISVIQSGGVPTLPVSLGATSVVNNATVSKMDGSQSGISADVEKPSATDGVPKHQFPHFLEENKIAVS
Setting: 8-mer, flanks averaged, mean of replicates
| Oligonucleotide | E-score |
| --- | --- |
| CCTGCCTA | -0.14 |
| CCAGGGAC | -0.347 |
| GGCCACGA | -0.258 |
| CTTACTCC | 0.0589 |
| AGTTGGCC | -0.264 |
| CGTCCATA | 0.0172 |

Block 3 — technique: aptamer microarray, sandwich; molecule type: DNA with 2'F-ANA; matrix: in vitro; tested at: 200 nM; together with: Cy3 exosite-II aptamer, 400 nM; direction: higher = stronger binding
Target: Prothrombin, mature alpha-thrombin (F2, Homo sapiens, UniProt P00734)
Setting: whole 15-mer aptamer, many near background
| Oligonucleotide | mean fluorescence intensity |
| --- | --- |
| GGTTGGTGTGGTTGG (2'F-ANA at 1 2 4 6 7 12 13 15) | 188 a.u. |
| GGTTGGTGTGGTTGG (2'F-ANA at 3 4 6 7 8 9 10 12) | 337 a.u. |
| GGTTGGTGTGGTTGG (2'F-ANA at 1 4 6 7 8 9 10 13 14 15) | 45.4 a.u. |

Mixed results
| Molecule | target | assay | system | setting | scale | measurement | value |
| --- | --- | --- | --- | --- | --- | --- | --- |
| PhoQ, residues 284 288 289 292 302 303 HSYLQF | PhoP, residues 12 14 15 18 19 VHSCL (Escherichia coli, UniProt P23836) | Sort-seq, refers to: YFP reporter | E. coli | PhoQ-PhoP variant library, together with: 10 µM Mg2+ | relative to: high Mg2+ state, higher = stronger signaling | fold induction | 8.72 |

Excerpt of the above (block 2):
| Oligonucleotide | E-score |
| --- | --- |
| CTTACTCC | 0.0589 |
| CCTGCCTA | -0.14 |
